Measured values pooled from the literature.
Protocols differ between the studies behind these lines. Numbers after ± are the reported error.
TDP1: Tyrosyl-DNA phosphodiesterase 1 (TDP1, Homo sapiens, UniProt Q9NUW8)
Sequence of UniProt Q9NUW8 (whole entry, looked up): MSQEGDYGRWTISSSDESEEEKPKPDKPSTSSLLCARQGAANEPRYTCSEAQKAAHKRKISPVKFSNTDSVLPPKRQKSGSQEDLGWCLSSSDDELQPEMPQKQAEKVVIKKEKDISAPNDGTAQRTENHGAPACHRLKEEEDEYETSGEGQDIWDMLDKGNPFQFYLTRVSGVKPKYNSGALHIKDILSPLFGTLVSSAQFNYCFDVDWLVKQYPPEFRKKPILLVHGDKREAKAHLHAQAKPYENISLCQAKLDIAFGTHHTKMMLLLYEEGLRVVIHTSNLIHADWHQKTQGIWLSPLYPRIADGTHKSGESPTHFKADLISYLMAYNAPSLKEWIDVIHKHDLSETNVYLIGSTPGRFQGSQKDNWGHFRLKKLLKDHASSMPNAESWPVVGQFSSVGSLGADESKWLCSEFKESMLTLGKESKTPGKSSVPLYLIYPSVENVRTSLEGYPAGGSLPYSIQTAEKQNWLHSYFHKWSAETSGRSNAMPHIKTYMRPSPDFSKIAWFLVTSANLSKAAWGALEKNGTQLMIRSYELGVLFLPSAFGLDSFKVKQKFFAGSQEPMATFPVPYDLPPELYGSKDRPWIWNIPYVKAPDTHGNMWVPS

COc1ccc(OC)c(C2=Nn3c(nnc3-c3ccc(Cl)cc3)SC2)c1
IC50 (Uncharacterized protein (Trypanosoma brucei brucei, UniProt Q386Q8); inhibitor, coupled colorimetric; Trypanosoma brucei): > 100 µM

COC1CN([C@H]2CC[C@H]([C@@]3(C)Oc4c(Cl)cc(C(=O)NCc5c(SC)cc(C)[nH]c5=O)c(C)c4O3)CC2)C1
log2 fold change (RNA-seq, item: RGS2; human, whole blood; dose not given, 24 h; baseline: pretreatment baseline): 1.27

COc1cc(O)ccc1CCC(c1ccc(O)cc1)c1cc2c(c(C)c1O)OC(c1ccc(O)cc1)CC2 (mixture of isomers)
amount (item: PGF2α; human whole blood; 0.3 µM, together with: Escherichia coli): 596 ± 279 pg/mL blood

Nc1ncc(-c2cc(-c3cnn(CC(F)(F)F)c3)ncc2F)nc1C(=O)NC1CNCC(F)C1 (stereo not drawn)
remaining binding (TESK1; KINOMEscan; 1 µM; baseline: DMSO control): 85%

CN1CCCNC(=O)c2cccc(c2)C(=O)NCCCN(C)CCCNc2cccc3c2C(=O)c2cccc(c2C3=O)NCCC1
log2 fold change (SAS; RNA-Seq, item: VIPAS39 mRNA; 1 µM, 6 h; baseline: untreated cells): -1.19

C=CC(=O)Nc1cccc(Cn2ncc3cnc(Nc4cnn(CCOC)c4)nc32)c1
percent of control (STK35 human; binding, KINOMEscan; 100 nM; lower = stronger binding): 100%

O=C(O)c1ccc(Nc2c(-c3ccccc3)nc3ccc(CON=Cc4cccn4-c4nccc(-c5cccs5)n4)cn23)cc1 (mixture of isomers)
inhibition (TDP1; enzyme activity, inhibitor; 100 µM, unpurified compound): 49.7%

Cc1ncsc1-c1ccc(C(C)NC(=O)C2CC(O)CN2C(=O)C(NC(=O)CCCCCCCCCCN2CCCC(Nc3ncc(Cl)c(Nc4ccccc4S(=O)(=O)C(C)C)n3)C2)C(C)(C)C)cc1 (stereo not drawn)
log2 fold change (22Rv1; RNA-seq, item: RHOV mRNA; concentration not given; baseline: DMSO): -1.05

Cn1ncc2cc(-c3cncc(Cl)c3N3CCC4(CCNC4=O)CC3)ccc21
log2 fold change (LS174T; gene expression, microarray, item: PTPRZ1 mRNA; concentration not given, 4 h; baseline: untreated cells): 1.13

C=CC(=O)N1[C@@H](c2ccc3c(c2)OCO3)c2[nH]c3ccccc3c2C[C@H]1C(=O)N1CCN(C)CC1
relative co-enrichment (human cyclin E1 wild type-3xFLAG:CDK2; co-IP with TMT proteomics, item: HNRNPK; concentration not given, P61978; baseline: wild type DMSO): 80%

CNS(=O)(=O)Nc1nccc(Cc2c(C)c3ccc(Oc4ncccc4F)cc3oc2=O)c1F
IC50 (PLC/PRF/5; cell viability, CellTiter-Glo; 7 days): > 1 µM

COC(=O)c1ccccc1C=NOCc1ccc2nc(-c3ccccc3)c(Nc3ccc(C(=O)O)cc3)n2c1 (mixture of isomers)
inhibition (TDP1; enzyme activity, inhibitor; 100 µM, unpurified compound): 30.2%

Some of these lines once more:
C=CC(=O)N1[C@@H](c2ccc3c(c2)OCO3)c2[nH]c3ccccc3c2C[C@H]1C(=O)N1CCN(C)CC1
relative co-enrichment (human cyclin E1 wild type-3xFLAG:CDK2; co-IP with TMT proteomics, item: HNRNPK; concentration not given, P61978; baseline: wild type DMSO): 80%

CNS(=O)(=O)Nc1nccc(Cc2c(C)c3ccc(Oc4ncccc4F)cc3oc2=O)c1F
IC50 (PLC/PRF/5; cell viability, CellTiter-Glo; 7 days): > 1 µM
